Published values of several laboratories.
Each numbered part is a random draw from the data of one study; scales do not carry over between parts.

Sample 1
Target: Sal-like protein 4, full length isoform B (SALL4, Homo sapiens, UniProt Q9UJQ4-2, residues 1-616)
Technique: universal PBM
Form: double-stranded DNA, one strand shown
Medium: in vitro
Tested at: not given
Notes: 8-mer, flanks averaged, mean of replicates
Direction: higher = stronger binding
Oligonucleotide	E-score
TCCAGACA	-0.155
AACGGTAT	0.15
CCGGACTC	-0.123

Sample 2
Target: Interferon regulatory factor 7, full length, phosphomimetic (IRF7, Homo sapiens, UniProt Q92985, residues 1-503, S471D/S472D/S475D/S476D/S477D/S483D/S484D/S487D)
Chain of UniProt Q92985 (whole entry, unmodified, looked up): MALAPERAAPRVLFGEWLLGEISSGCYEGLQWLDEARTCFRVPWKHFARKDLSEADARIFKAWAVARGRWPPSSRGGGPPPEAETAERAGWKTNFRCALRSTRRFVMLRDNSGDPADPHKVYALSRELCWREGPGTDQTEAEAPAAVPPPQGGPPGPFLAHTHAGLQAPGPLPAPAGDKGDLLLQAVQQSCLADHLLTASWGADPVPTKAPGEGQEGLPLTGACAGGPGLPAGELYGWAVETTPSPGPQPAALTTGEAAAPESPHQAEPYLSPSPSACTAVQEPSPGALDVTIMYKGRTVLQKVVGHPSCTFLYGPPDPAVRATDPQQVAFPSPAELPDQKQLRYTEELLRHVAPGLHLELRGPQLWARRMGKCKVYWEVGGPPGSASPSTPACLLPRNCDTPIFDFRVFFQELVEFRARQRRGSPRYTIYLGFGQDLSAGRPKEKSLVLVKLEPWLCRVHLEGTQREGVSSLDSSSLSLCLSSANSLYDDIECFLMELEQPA
Technique: protein-binding microarray
Form: double-stranded DNA, one strand shown
Medium: in vitro
Tested at: 2200 nM top
Notes: 60-bp whole probe
Together with: salmon DNA 0.4 mg/ml
Reference: random background probes
Direction: higher = stronger binding
Oligonucleotide	fitted relative affinity [z-score]
GCCTAGCACGAAGGTCTCCTTCTCCTGACGTGCTAGGTCTTGATTCGCTTGACGCTGCTG	0.728
GCCTAGCACGACGGTTTCCACTATCGGGACGTGCTAGTCTTGATTCGCTTGACGCTGCTG	2.12
GCCTAGCACACAGGAGTGTTTCTCAGTTTGTGCTAGGTCTTGATTCGCTTGACGCTGCTG	0.586
GCCTAGCACTTTTGTTTTTCATTATTGTCGTGCTAGGTCTTGATTCGCTTGACGCTGCTG	6.36

Sample 3
Target: Histone acetyltransferase KAT6A, both winged helices, GST fusion (KAT6A, Homo sapiens, UniProt Q92794, residues 1-181)
Technique: protein binding microarray
Form: double-stranded DNA, one strand shown
Medium: in vitro
Tested at: not given
Notes: 8-mer, flanks averaged, mean of 2 arrays, mostly near background
Reference: not given
Direction: higher = stronger binding
Residues (chain): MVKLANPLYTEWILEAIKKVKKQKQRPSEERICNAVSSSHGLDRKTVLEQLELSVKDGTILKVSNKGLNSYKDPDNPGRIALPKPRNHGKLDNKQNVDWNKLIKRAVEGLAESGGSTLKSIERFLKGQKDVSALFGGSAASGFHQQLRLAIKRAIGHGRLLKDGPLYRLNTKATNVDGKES
Oligonucleotide	E-score
CTCTCATA	-0.214
CGAGCGAC	0.0651
GGTTGAAA	-0.0934
TCGATCAA	0.00591

Single results of other studies
Substance	target	test	test system	conditions	scale	quantity	value
PhoQ, residues 284 288 289 292 302 303 SLGVVW	PhoP, residues 12 14 15 18 19 FWNTL (Escherichia coli, UniProt P23836)	Sort-seq, refers to: YFP reporter	E. coli	PhoQ-PhoP variant library, together with: 10 µM Mg2+	reference: high Mg2+ state, higher = stronger signaling	fold induction	17.8

Some of these lines once more (sample 1):
Oligonucleotide	E-score
TCCAGACA	-0.155
